Published values gathered from unrelated publications.
Every numbered part comes from another study and shows a few of its results, in no order.

Block 1 — method: RNA Bind-n-Seq; molecule type: RNA; sample: in vitro; tested at: not given; baseline: input RNA pool; reading: higher = stronger binding
Target: RING finger protein unkempt homolog, zinc fingers 1-6, GST-SBP tag (UNK, Homo sapiens, UniProt Q9C0B0, residues 30-357)
Setting: RNA with constant flanks, human-mouse chimeric sites, ends assumed
Constant ends, left off below: GGGAGUUCUACAGUCCGACGAUC … CAACAGAGGAUUGAGCAUCA
Target sequence (chain): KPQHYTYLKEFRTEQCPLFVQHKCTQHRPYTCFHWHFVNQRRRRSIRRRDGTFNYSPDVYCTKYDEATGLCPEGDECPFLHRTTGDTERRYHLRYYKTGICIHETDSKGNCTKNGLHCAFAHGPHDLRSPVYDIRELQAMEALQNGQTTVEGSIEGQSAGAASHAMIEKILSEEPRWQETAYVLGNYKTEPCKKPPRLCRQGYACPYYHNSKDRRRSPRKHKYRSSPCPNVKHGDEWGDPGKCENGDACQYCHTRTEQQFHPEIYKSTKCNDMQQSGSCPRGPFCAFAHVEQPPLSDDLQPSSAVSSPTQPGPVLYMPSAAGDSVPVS
Sequence	bound/input enrichment [ratio]
GGGUGGGUGGUCAUUGCCGUUUGAGCUGCUGAUUUUCAUGAGUCGCCUUCAAAACUCUCGCAUAGGGUUGACAAUGUGGGGGGGUGGGGGAUCCAGCUUAUUCUUUUAUUUUCAAGUCCA	0.496
AUCAAAUAUUUUGGGGACAUCAUUAGUGUGGGACAGAGACUGUUGCAAGGAGCUCGGAUCUUAGGGAUUCCAGUUAUCAUAACGGAACAAUACCCUAAAGGACUUGGCAGCACCGUUCAA	0.178
CCAAUUGUGGAGCAGUACUUGAAGACAAAGAAAAAUUCUAAUAAUUUAAUCAUCAAGUACAUUAGCUGCCGGCUGGUGACACUCAUCAUUAUACUGUUAGCGUGUAUCUACCUGGGCUAU	0.647
CUGGGCUUCUCUUUUCUGAUCGUCAGGUAGGAAAAGCCUAAAGAUUAGGUUGUAAGAAAAACAGAAGCCAUGUUUCGAAGACCUGUGUUACAGGUAUUUCGUCAGUUUGUAAGACAUGAG	0.437
UUAAACACCAAGCUGAUGGACUCUGAUGGCCUCCAUCUCUCAGGCACGUGUGCCUUCUCUUAGUCCCUGUUUUCGGGAUGUUAUGAAUCUCAGUACUGUGGUUUGAAAGCAGUUAUGUUG	0.234
GUAGCUGGGACUACAGAAAUGCUGGUAGUGCUCCGGCCUUGCUGAUGACUUCUGAUGACCUAGCAAAUGUUGGCAUUGUUGACUGCUGAGAAGAUACUUCUGAGGACCCACGUCUAAGGU	0.0716
AUAGAUGAAAUUGAUGUGGACCAGGAAGGAAUUGCUGAAAUGAUCCUGGAUGAAAAUGCUAUAGCUCAGGUCCCACGCCCUGGAACGUCUUUGAAGCUCCCUGGCACUAACCAAACAGGA	0.465
CCCCAAUACCAUUUGCAAGAGUUGGAAUGCACUCUCUUUUUUAAAAAACAUGUAUACAUUUUAGGGCUGUAGAUUUAUUUUCCUGGUUUUGUUUUUCUUGCUUAUUCUUUGAGCACAGAA	2.13

Block 2 — method: competition protein-binding microarray; molecule type: double-stranded DNA, one strand shown; sample: in vitro; tested at: 2 µM; together with: Pho4 competitor, 0.05 µM; reading: higher = stronger binding; constant ends, left off below: … GTCTTGATTCGCTTGACGCTGCTG
Target: Centromere-binding protein 1, full length, His-tagged (CBF1, Saccharomyces cerevisiae, UniProt P17106, residues 1-351)
UniProt P17106, sequence (whole entry, looked up): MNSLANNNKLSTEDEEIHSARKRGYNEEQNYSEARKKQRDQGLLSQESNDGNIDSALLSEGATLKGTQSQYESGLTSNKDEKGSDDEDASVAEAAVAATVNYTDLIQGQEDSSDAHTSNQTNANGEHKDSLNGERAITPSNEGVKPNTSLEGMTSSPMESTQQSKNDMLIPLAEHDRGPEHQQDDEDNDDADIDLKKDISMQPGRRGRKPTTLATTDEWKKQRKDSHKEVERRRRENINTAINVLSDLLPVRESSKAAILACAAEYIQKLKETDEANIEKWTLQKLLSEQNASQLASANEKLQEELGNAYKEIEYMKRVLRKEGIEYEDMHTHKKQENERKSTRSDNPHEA
Setting: whole 60-bp probe, lowest competitor level
Sequence	fluorescence intensity [a.u.]
AAAATAGCTGAAATTCACGTGTTGAATTACCGCATC	914
CTTTCCCGATCTTGGTGAGTGGGTGTAGCACATTTG	76.2
ATAGCCGAAAGAGGAAATGTGATATGCCCACCTGTG	103
AATTGTCTAAAATTCGTCGTGCTTTCAGAGACTTGT	75.4
ATTTGAGAATATACTGTCGTGACGAAGTCAATGACA	116
CTAACGAAGGTTTGTATGGTGGGTGACAAGCCAAGT	71.6
TGCGCAACAACTTGTCCAGTGGGTGTATGTCTAGAA	56
ATTACCCGTCTCCGTCACGTGAAGTAAAAATTTCCA	3700
TTCTGATAAGCCCATCACGTGACGGTGGTTCTAAGA	10500
ATGTATTACCTAACTCAGGTGATGGAGTGCTCAGAG	94.4
TCTCTGTTGCAATCTCACGTGAAAAAGTGGATTCGC	676
TAAAAACGATTTCACCACGTGACTCGTATTAGAAAT	11800
GAGAGCCTTGGTTGTCATGCCCTGAGGACCCAATGT	64.9
TGGAATGCATAAAAGAATGTGATGAAGTGTTTCCAA	86.7
TCAATGATCCCCTTGGGCGTGCAAAGCAAAAAGAAT	76.4
TACTGCATAAATGTTTGTTAGTGTCAATGAGCTTGA	71
CCGGAACTGACTTTTATCGTGATGGGAACTTTGGGT	71.9
ATAGGTGCCATCACAATCGTGCCGAAATCTACCACT	54.2
ACCCGTAGTGGATGTGGCGTGCGGATGGGACTCGAC	72.1

Block 3 — method: RNA Bind-n-Seq; molecule type: RNA; sample: in vitro; tested at: 365 nM; baseline: no-protein control; reading: higher = stronger binding
Target: RNA binding protein fox-1 homolog 2, RRM domain, GST-SBP tag (RBFOX2, Homo sapiens, UniProt O43251-10, residues 100-194)
Setting: natural RNA segment, single round, ends assumed
Constant ends, left off below: GGGAGUUCUACAGUCCGACGAUC … UGGAAUUCUCGGGUGCCAA
Target sequence (chain): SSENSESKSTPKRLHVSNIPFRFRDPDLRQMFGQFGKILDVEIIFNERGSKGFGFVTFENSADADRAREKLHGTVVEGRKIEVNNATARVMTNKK
Sequence	RBNS enrichment (R)
AAGAGAGAACCUAACUGUAUCUUGAGGUGGUAGUAAAACACAGAGGGCCAGUAACGGGUCGUAAUGACUUAUUGUGGAUAACAAAGAUAUCUUUUCUUUAGAGAACUGAA	0.349
CCUUAUCAAAUGUGUCUGCAAAUCAAGAUGGUCUAAAGUGCAAGCCAGUUUUUUGUUUGCUUGUUUUUGAAACUGGGUUUAGGGGAUACAGUUGUCAGAAGUGACUCAUU	1.12
GGUCCAGCACAAGAUGUGAAGAUUAAAUGCCUAUUCUUACUGAAGGUUUGAUGUGGAAUCAUGGCUGCAGUGAUAUGUUUUUAUCAGCGCUUGGUGGUUUUAAAGUGCAU	0.463
UCAAAAGAAUACAUAGACUGGACACGAAGCUCAAAGGUAGAGUUCGCCUAGCAUGCAUACGAAGCCUGGAUCCCAUAUCCCAGCAGGGCAAACCAAUUGCCUCAGGCUAU	5.88
UAAGCUGUUUCUAAGUGUUUAAAUUUGAAAAGCAUCAUGUUCUCAUGAUUUAUGGGAAUGAAGCAAGUACUGAAAUCAAAUUAAAUACUCCCUGGGUCCUGGGUCAGUUU	0.508
GCUGCCUUGCUCGCUGUUAUAUUAAGUAGAAGGAGUUUUAGGAUAUUCGAGACAGUGCUUCUGGAGGAGCCAUUGGAAAGACUGGAGAAGAUUCUAAUGGAUAGGAUUUA	1.42
UACCUUUUGGGAUGAUUGCUCGAUUGUUUGGUUUUUAAAUCUGAGAAGCCUAGAUAACUAAUCUGCUUUUAAUCACGAUGUUUUAAUCUACCUCUGUCUCUUUAACCAUG	0.353
CUCUGUUCCAAACAGGCCAGUGGAGUCCUGAAAGUAAGCAGAGAAAGCGCUCAUUCAGCUUGGCAGGAUGCUCAGCAAACCCUGCUUUCUGCAUAACCACCACCAAUCCC	0.297

Block 4 — method: protein-binding microarray; molecule type: double-stranded DNA, one strand shown; sample: in vitro; tested at: 940 nM top; setting: 60-bp whole probe; together with: salmon DNA 0.4 mg/ml; baseline: random background probes; reading: higher = stronger binding; constant ends, left off below: GCCTAGCAC … GTCTTGATTCGCTTGACGCTGCTG
Target: Interferon regulatory factor 5, full length, phosphomimetic (IRF5, Homo sapiens, UniProt Q13568-2, residues 1-514, S451D/S453D/S456D/S462D)
Sequence	fitted relative affinity
CCTAATTCTCTTTTCACTTTGTGCTAG	2.31 z-score
TTAGGTATCGGTATCCGTTAGTGCTAG	9.88 z-score
TCAGTGGTCTGTTTCTGACTGTGCTAG	0.293 z-score
GACGACCTCAGACTGGAGACGTGCTAG	-0.618 z-score
TATAATATATATTCATATATGTGCTAG	0.176 z-score
GAAGATATCAGTTTCGAGACGTGCTAG	3.55 z-score
CATCATTTTTCCCTCTGGAAGTGCTAG	1.14 z-score
GACGATCTCAGATTCGAGACGTGCTAG	0.057 z-score
CAGGGAATTCACCTGCTGACGTGCTAG	-0.693 z-score
TTAGACCTCAGTCTCGATTAGTGCTAG	2.45 z-score
GACGATTTCGGGCATCGAGACGTGCTA	0.147 z-score
GAGGGACTGGGTATCGGGACGTGCTAG	1.18 z-score
TTAGGTATCCTTTTCGTTTAGTGCTAG	1.17 z-score
GCCGGTTTCGGTTCCGGGACGTGCTAG	15.5 z-score
TCAACTTTCCAAAACATACTGTGCTAG	1.07 z-score
TCACTTTGCTCATTTTTCACTGTGCTA	1.27 z-score
TTAGGTTTCGGTTCGGGTTAGTGCTAG	14.9 z-score
TCAACACTCACCATGGCACTGTGCTAG	0.125 z-score

Repeated from above (block 3):
Sequence	RBNS enrichment (R)
UCAAAAGAAUACAUAGACUGGACACGAAGCUCAAAGGUAGAGUUCGCCUAGCAUGCAUACGAAGCCUGGAUCCCAUAUCCCAGCAGGGCAAACCAAUUGCCUCAGGCUAU	5.88
UAAGCUGUUUCUAAGUGUUUAAAUUUGAAAAGCAUCAUGUUCUCAUGAUUUAUGGGAAUGAAGCAAGUACUGAAAUCAAAUUAAAUACUCCCUGGGUCCUGGGUCAGUUU	0.508
GCUGCCUUGCUCGCUGUUAUAUUAAGUAGAAGGAGUUUUAGGAUAUUCGAGACAGUGCUUCUGGAGGAGCCAUUGGAAAGACUGGAGAAGAUUCUAAUGGAUAGGAUUUA	1.42
UACCUUUUGGGAUGAUUGCUCGAUUGUUUGGUUUUUAAAUCUGAGAAGCCUAGAUAACUAAUCUGCUUUUAAUCACGAUGUUUUAAUCUACCUCUGUCUCUUUAACCAUG	0.353
